Published values of several laboratories.
Numbered parts are unrelated; each lists some results of a single study. Substitutions count along the parent as printed.

Block 1 — technique: universal PBM; form: double-stranded DNA, one strand shown; medium: in vitro; tested at: not given; direction: higher = stronger binding
Target: Sal-like protein 4, full length isoform B (SALL4, Homo sapiens, UniProt Q9UJQ4-2, residues 1-616)
Setting: 8-mer, flanks averaged, mean of replicates
Sequence | E-score
ATCCCTGC | 0.0403
ACCTCATC | -0.0863
AGCGCTCA | -0.192
AGGTTCAT | -0.039
GAGACCTA | -0.151
TGGCTCAA | -0.125
ACCACTAG | 0.0626
CGCCGGAC | -0.372
AAATTAGT | 0.34
GCCGGTAC | -0.273

Block 2 — technique: protein binding microarray; form: double-stranded DNA, one strand shown; medium: in vitro; tested at: not given; relative to: not given; direction: higher = stronger binding
Target: Histone acetyltransferase KAT6A, winged helix 2, GST fusion (KAT6A, Homo sapiens, UniProt Q92794, residues 85-181)
Setting: 8-mer, flanks averaged, mean of 2 arrays, mostly near background
Target sequence (chain): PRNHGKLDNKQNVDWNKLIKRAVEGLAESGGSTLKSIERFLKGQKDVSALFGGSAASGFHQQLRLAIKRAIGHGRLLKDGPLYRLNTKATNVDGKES
Sequence | E-score
CATTTAGG | -0.197
GGGGCTGA | -0.0155
AATAATTA | 0.218
AGCTCTAT | -0.103
GCCGCCTA | -0.0264
CCCACCTC | -0.0475
CGGTTAAC | -0.103
ATTGATTC | 0.136
ACAAACTG | 0.0569
AGCTTAAA | 0.123
TCTAAGAA | 0.112

Block 3 — target: CCNE1, cyclin fold, Cln2 fusion (human); technique: yeast growth competition, sequencing; medium: yeast; setting: strong parent motif; relative to: not given; direction: higher = stronger binding
Starting sequence: E2F1 docking peptide (human); PPVKRRLDFETDH; partner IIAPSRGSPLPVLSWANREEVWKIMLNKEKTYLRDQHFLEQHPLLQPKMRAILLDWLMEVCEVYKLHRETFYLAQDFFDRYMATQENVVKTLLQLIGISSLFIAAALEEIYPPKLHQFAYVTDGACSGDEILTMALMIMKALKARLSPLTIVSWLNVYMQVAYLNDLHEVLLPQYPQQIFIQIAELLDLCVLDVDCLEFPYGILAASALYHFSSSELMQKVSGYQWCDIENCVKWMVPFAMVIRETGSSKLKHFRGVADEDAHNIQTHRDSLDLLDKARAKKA
Change | normalised enrichment score
PFVKRRLDFETDH [P2F] | 5.88
PHVKRRLDFETDH [P2H] | 6.66
PPVKRRLDFEDDH [T11D] | 6.09
PPVKCRLDFETDH [R5C] | 0.745
PPVKWRLDFETDH [R5W] | 0.0862
PPVKRRMDFETDH [L7M] | 0.782
PPVKRRLDFETFH [D12F] | 6.36
PPVKRRLDFEHDH [T11H] | 6.15
PPVKRRLDFETRH [D12R] | 6.39
PTVKRRLDFETDH [P2T] | 6.5
PPVKRTLDFETDH [R6T] | 4.39
PPVKRRLYFETDH [D8Y] | 6.72

Mixed results
Substance | target | test | system | setting | how to read | measurement | value
PhoQ, residues 284 288 289 292 302 303 TNASYF | PhoP, residues 12 14 15 18 19 NQFFI (Escherichia coli, UniProt P23836) | Sort-seq, item: YFP reporter | E. coli | PhoQ-PhoP variant library, added: 10 µM Mg2+ | relative to: high Mg2+ state, higher = stronger signaling | fold induction | 2.21
